Results of several laboratories.
Numbered parts are unrelated; each lists some results of a single study. Substitutions count along the parent as printed.

Sample 1
Target: CCNE1, cyclin fold, Cln2 fusion (human)
Technique: yeast growth competition, sequencing
Matrix: yeast
Notes: weak parent motif
Reference: not given
Reading: higher = stronger binding
Starting sequence: CDC6 docking peptide (human); TLKGRRLVFDNQL
| Variant | normalised enrichment score |
| --- | --- |
| TLKGRNLVFDNQL [R6N] | -0.48 |
| TLKSRRLVFDNQL [G4S] | -0.425 |
| TCKGRRLVFDNQL [L2C] | 0.202 |
| TLKGRVLVFDNQL [R6V] | 1.33 |
| TLKGDRLVFDNQL [R5D] | 0.258 |
| QLKGRRLVFDNQL [T1Q] | -0.37 |
| TLKGRRLQFDNQL [V8Q] | -0.286 |
| TLKGIRLVFDNQL [R5I] | -0.232 |
| TLKGRRLVFDNKL [Q12K] | -0.0538 |
| TLKARRLVFDNQL [G4A] | 0.736 |
| TLKGRRLLFDNQL [V8L] | 1.04 |
| TLKGRRLTFDNQL [V8T] | 0.345 |
| TLKGRRLVFDNRL [Q12R] | 0.0147 |
| TLKGRRLVFDNEL [Q12E] | 0.277 |
| TLEGRRLVFDNQL [K3E] | -0.232 |
| TLKGRRLVFDNQE [L13E] | 0.815 |
| TIKGRRLVFDNQL [L2I] | 0.491 |
| TQKGRRLVFDNQL [L2Q] | 0.235 |
| ELKGRRLVFDNQL [T1E] | 1.1 |

Sample 2
Target: Histone acetyltransferase KAT6A, winged helix 2, GST fusion (KAT6A, Homo sapiens, UniProt Q92794, residues 85-181)
Technique: protein binding microarray
Form: double-stranded DNA, one strand shown
Matrix: in vitro
Concentration: not given
Notes: 8-mer, flanks averaged, mean of 2 arrays, mostly near background
Reference: not given
Reading: higher = stronger binding
Target sequence (chain): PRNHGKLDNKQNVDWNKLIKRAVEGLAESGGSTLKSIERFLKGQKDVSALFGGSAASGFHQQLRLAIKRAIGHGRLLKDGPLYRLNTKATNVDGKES
| Sequence | E-score |
| --- | --- |
| AGCCTCAC | -0.0266 |
| GTATGTGA | -0.0863 |
| CCCTATAG | -0.218 |
| CATGGGCA | -0.0285 |
| CACAGATG | -0.188 |
| AGATACGC | -0.045 |
| ATCCTGGA | 0.0101 |
| ATTTAGTC | 0.00482 |
| ACCAGAAG | -0.147 |
| AATTTCTC | 0.0632 |
| AATAGATC | -0.0325 |
| AGCTCGCC | 0.195 |
| AGACGGCC | -0.0331 |
| ATGGTTCG | -0.0987 |
| AGCCCCCA | -0.0455 |
| CGTCCTGA | -0.0832 |
| CGGCATGA | 0.146 |
| GTTCTAGA | -0.0257 |
| CCGTTATA | 0.102 |
| AGCTCCCG | -0.0996 |
| GGCCTGGA | -0.0969 |
| CGGAATGA | 0.00914 |

Sample 3
Target: RNA binding protein fox-1 homolog 2, RRM domain, GST-SBP tag (RBFOX2, Homo sapiens, UniProt O43251-10, residues 100-194)
Technique: RNA Bind-n-Seq
Form: RNA
Matrix: in vitro
Concentration: 365 nM
Notes: natural RNA segment, single round, ends assumed
Reference: no-protein control
Reading: higher = stronger binding
Shared flanks, not repeated: GGGAGUUCUACAGUCCGACGAUC … UGGAAUUCUCGGGUGCCAA
Construct (chain): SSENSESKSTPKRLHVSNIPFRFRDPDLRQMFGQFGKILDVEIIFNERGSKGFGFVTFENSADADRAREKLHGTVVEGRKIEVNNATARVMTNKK
| Sequence | RBNS enrichment (R) |
| --- | --- |
| GACUCUUCUAUGCUCCUGUUGGUUUACAAGCCACCAAGAAUGUCAGUGUUGAGAAUACGGCCUGGUAAAAUGGGAGAUGUAAAAUGACUAAAUGAAAGGAAGGGUAGUUU | 0.49 |
| UUUACUAGGGCUACUUCUGGAAGCCAAAAUAGAAUAGCAUUUCCAUGUGCAUUAAAUACUUUGCCAGCACUGCCUUUGCCAGCAUCCUAAAUCUGGAGUUUUACAAAGAA | 0.364 |
| UGUAGACCAUUGACUGACCCCAGUCAAAGAUAGGUCCUAGUGAUAUAAGAACACUAGCCCAAAAGGUCUAUGCAGUAGUUAAGUAGUGCUUUUGCUUAUUAUAGGGUGCU | 0.261 |
| AUGGCUCUGUGUGGAGUGCAGUAGACAUCAGGGACAGACAAAGGCUGUUAGAGAGUGCCAUGAGUGGAAAAUACCUGCACGAUGACUUCGCCCUGCCCUGCCCACCGGGG | 4.8 |
| AGUAGUCUGUCAACCUCAGACACUGGUUUCGAGACAGUUUACACUUGACAGUUGUUCAUUAGCGCACAGUGCCAGAAUGCACACUGAGGUGAGUCUCCUGGAACAGUGGA | 0.625 |
| UGAAAUAAAUAGUGCAAAUGUGUAGGAAUAAUUAGAUUGCAGUUUCCAUACAUCCGCAAGCCCAGUUAGUUGAAACUGCAAUCAAUAUUUACCUUACAACCUUUCCAUUA | 1.26 |
| AUGAAAUACAUGUAUAUUGUGUAUGGACUUAAUUAUGCACAUGCUCAGAUGUGUAGACAUCCUCCGUAUAUUUACAUAACAUAUAGAGGUAAUAGAUAGGUGAUAUACAU | 0.512 |
| CCAUUCAAUCUUCCCCACUAGGGGUUAUCAUUGGCAAUGGACGAGCUGAAGAUUUUGGAGCCUAUCCAUGGUUCAGGGCAGUAGAACUGGCUUCCUCUAUGGAUGCUUCC | 0.183 |
| AAAUUAUGCAGGUGAUAACAUGGUUUGGAACUGUUUAUUGGGCUCUUUAACUGAAUUUUCAAAUGAAAUGAACUAUGCUUAUUGCUGGCACAUUGAUCCCAUUUCUGGAA | 1.42 |
| AGCUUUUUGCGGGUACAGAGCAGGCUUUGGGGGGUAACCAGCUAGCUGCUGCUAGGCCUUUAUUCCCAGGGUUUGGCUGCAUUGGCAGUGAGGCAGGUGGCUGGGGGUGA | 0.321 |
| UAACUUAUUGUUCAUAUUCAUUUCUAAGUUAAUUUAAGUAAUCAUUUAUUAAGACAGAAUUUUGUAUAAACUAUUUAUUGUGCUCUCUGUGGAACUGAAGUUUGAUUUAU | 1.06 |
| GAGCAGCUCGCUGGCCAGAAGGGGAUGGGGGCAUCCCUGUGCCUCACUCAGCUCCUGCUGCUCUUAGGGAAAGGAGGCCUGGGUCAAGCCAGCAUCCCCUUGGUAAAGAC | 0.454 |

Sample 4
Target: RING finger protein unkempt homolog, zinc fingers 1-6, GST-SBP tag (UNK, Homo sapiens, UniProt Q9C0B0, residues 30-357)
Technique: RNA Bind-n-Seq
Form: RNA
Matrix: in vitro
Concentration: not given
Notes: RNA with constant flanks, human-mouse chimeric sites, ends assumed
Reference: input RNA pool
Reading: higher = stronger binding
Shared flanks, not repeated: GGGAGUUCUACAGUCCGACGAUC … CAACAGAGGAUUGAGCAUCA
Construct (chain): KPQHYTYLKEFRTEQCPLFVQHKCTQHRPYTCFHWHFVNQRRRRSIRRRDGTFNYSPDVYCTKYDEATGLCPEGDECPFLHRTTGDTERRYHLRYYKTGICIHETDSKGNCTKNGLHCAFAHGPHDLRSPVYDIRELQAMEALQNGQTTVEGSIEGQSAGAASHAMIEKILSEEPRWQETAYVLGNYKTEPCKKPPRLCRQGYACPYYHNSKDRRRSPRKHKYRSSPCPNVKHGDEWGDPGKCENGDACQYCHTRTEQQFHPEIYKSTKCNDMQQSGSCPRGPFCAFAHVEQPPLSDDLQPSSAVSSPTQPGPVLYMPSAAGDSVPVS
| Sequence | bound/input enrichment |
| --- | --- |
| GAUCAUGAACCACCAUCAGAAAUGAAGAUGAGAUUACCCAGACGAGCCAAAACAGCUAGCACUAGAAAAAGUAAACUUAACCUUGCAGAGUUCCUUAAUGAAGAUACUAAGUUAGGAAGC | 3.46 ratio |
| GACAGUGAAGAAGAGAUUAGAGAAGCAUUCCGUGUGUUUGAUAAGGAUGGCAAUGGCUAUAUUAGUGCUGCAGAACUUCGCCAUGUGAUGACAAACCUUGGAGAGAAGUUAACAGAUGAA | 0.691 ratio |
| AAAGAACCUCUCUCUGAUGAAGAUGAGGAAGACAAUGAUGAUGUUGAACCCAUUUCUGAAUUUCGAUUUGUGCCCAGUGAUAAAUCAGCAUUGGAGGCGAUGUUCACUGCAAUGUGCGAG | 0.204 ratio |
| UGUGAACUGUCUCUUGAGAUCUAAAAACAAGAUGACUUUUCCUGGCACAUAUUCCAAAGCAUAGACUUUGUUACCUGCUGCUUAUUGUCUAAUUUACAGGGAUAUUUAAUUUUGUCAGGU | 0.205 ratio |
| GAAUCCUACUCAGGCGGAUUUUGCAACCUGAAUGCAACAGCAGCAGCAUCUUAGUCACAGUAGGGUAGUUUUGGGGCUCUGUGGCCAUGGUUUUACUCACAUGCAGGUUUGGAAAAUGUA | 0.778 ratio |
| GAACCUGCUCUCUCUGAUGAAGAUGAGGAAGACAAUGAUGAUGUUGAACCCAUUUCUGAAUUUCGAUUUGUGCCCAGUGAUAAGUCAGCAUUGGAGGCGAUGUUCACAGCAAUGUGUGAG | 0.288 ratio |
| UCUGGUCACACUCGUGUGUAUGGUGUUUGCUUUGUGGACACUUCACUGGGAAAGUUUUUCAUCGGCCAGUUUUCGGAUGACCGCCACUGUUCCAGAUUUAGGACGCUAGUGGCUCACUAU | 0.239 ratio |
| AUGGAGAAGGAUUCUCUGCCCCGCUUUGUGCGCUCUGAAUUUUAUAAGGAGCUAAUCAAGUAGUCAUCUGGUCAGGCUUCCAAAAGUUCCUGUGAGUGUUGAGUUACAUCCUUUGUAGCA | 0.325 ratio |
| GUGCCCUCCUUCUCGCUGCGGAGCCCGAGCUGGGAACCAUUCCGGGACUGGUACCCUGCACACAGCCGCCUCUUCGAUCAAGCUUUCGGGCUGCCCCGGUUGCCCGAUGAGUGGUCGCAG | 0.0612 ratio |
| CUCAGAGAUGUGGCAUAUCAGUAUGUGAAAAAGGGGGCUCGUAUAUUUUUGGAAGGGAAAAUAGACUAUGGCGAGUACAUGGAUAAAAACAAUGUGAGGCGGCAAGCAACAACAAUCAUA | 0.433 ratio |
| UGACAAGGGCACUGCAGAGCCAUGCCUUUCUUGGACAUACAGAAAAAGCUGGGCAUCAGCCUGGACCGGCACUUUAUGUUCCUAAGCGGUGAACAGCCCUAUAAGAACGCCGCUCGGUGC | 0.0818 ratio |

A few entries again (sample 2):
| Sequence | E-score |
| --- | --- |
| CACAGATG | -0.188 |
| AGATACGC | -0.045 |
| ATCCTGGA | 0.0101 |
| ATTTAGTC | 0.00482 |
| ACCAGAAG | -0.147 |
| AATTTCTC | 0.0632 |
| AATAGATC | -0.0325 |
